Measured values collected from several papers.
± marks the error that the study gave.
Organism: Plasmodium falciparum

The IC50 of Cc1nc2ccc(F)cc2c2c1C1(C)CC2c2cc(F)ccc2N1 (stereo not shown) is reported as 353 nM (parasite growth, inhibitor, SYBR Green I; 3D7).
Cc1cc(N2CCC(CO)(C3CC3)C2=O)cc(C(=O)NCc2cc(F)cc(-c3cnn(C)c3)c2)n1 (stereo not shown) has an IC50 of 34 nM (parasite growth; cPRS conditional knockdown line; 72 h, together with: 12.5 nM anhydrotetracycline).
CCOC(=O)CCCc1cccc2c(-c3ccc(Oc4ccccc4)cc3)ccnc12 gave an IC50 of 1170 nM (parasite growth, inhibitor, SYBR Green I; 3D7).
With O=C1C(NCCc2ccc(O)c(Br)c2)=CC2=NCCc3c[nH]c1c32 the IC50 was 1140 nM (parasite growth, SYBR Green; W2; blood stage).
Cc1cc(N2CC[C@@](C#N)(C3CC3)C2=O)cc(NC(=O)Cc2ccccc2)n1 gave an IC50 of 51 nM (parasite growth; conditional knockdown control line; 120 h, together with: 3 nM anhydrotetracycline).
With O=C1C(NCCc2ccc(O)cc2)=CC2=NCCc3c(Br)[nH]c1c32 the IC50 was 6360 nM (parasite growth, SYBR Green; W2; blood stage).
COc1cccc2c(-c3ccc(O)c4c3C[C@@H](C)N[C@@H]4C)c(C)cc(O)c12 has an IC50 of 56 ± 13 nM (asexual parasite proliferation, SYBR Green I fluorescence; K1).
For O=C(CCCCCONC(=O)c1nc(-c2ccc(C(F)(F)F)cc2)cs1)NO, the IC50 was 200 nM (asexual blood-stage growth, [3H]hypoxanthine uptake; 3D7; 72 h).
Cc1nc(CN(C)c2ncnc3c2cnn3CCO)cs1 gave an IC50 of over 6000 nM (parasite growth; NF54; blood stage).
COc1ccc(-c2csc(C(=O)NOCCCCCC(=O)NO)n2)cc1 has an IC50 of 50 nM (asexual blood-stage growth, [3H]hypoxanthine uptake; 3D7; 72 h).
The IC50 of N[C@H]1C[C@@H](C(=O)O)CC1=C(C(F)(F)F)C(F)(F)F is reported as over 10 µg/mL (parasite growth, SYBR Green; D6; blood stage).
COc1ccc(CCNC2=CC3=[N+](C)CCc4c[nH]c(c43)C2=O)cc1 has an IC50 of 76.3 nM (parasite growth, SYBR Green; DD2; blood stage).
CCOC(=O)c1ccc2c(c1)C1CC(C)(N2)c2c(C)nc3ccc(C(=O)OCC)cc3c21 (stereo not shown) has an IC50 of 758 nM (parasite growth, inhibitor, SYBR Green I; 3D7).
For CC(F)(F)CCCNC[C@@H](O)c1cc(Cl)cc2c1-c1ccc(Cl)cc1C2, the IC50 was 5.1 ± 0.9 nM (parasite growth; Plasmodium falciparum 3D7, 3D7; 48 h).
With CC1=C(Cn2cc(CN3CCC(=O)CC3)nn2)C(=O)c2ccccc2C1=O the IC50 was over 10000 nM (parasite growth, [3H]hypoxanthine incorporation; NF54; 72 h).
COc1ccc(-c2ccc(C)cc2)c2c1C(C)=N[C@H](C)C2 has an IC50 of 3900 nM (parasite growth, SYBR Green; NF54; blood stage).
O=C1C(=O)c2[nH]cc3c2C(=C1Cl)NCC3 gave an IC50 of 7290 nM (parasite growth, SYBR Green; DD2; blood stage).
With Oc1cccc2c1[nH]c1c(C3=CC4(O)CCC=CCCCCN5CCC3C3(CC6C=CCCCCN6C43)C5)nccc12 (single isomer, unassigned; (+)) the IC50 was 0.0195 ± 0.0106 µg/mL (parasite LDH; D6, chloroquine-sensitive; 72 h).
For COc1cc(O)c(-c2cc(-c3cc(-c4c(O)cc(OC)c5c4C[C@@H](C)N[C@@H]5C)c4cc(C)cc(OC)c4c3O)c(O)c3c(OC)cc(C)cc23)c2c1[C@@H](C)N[C@H](C)C2, the IC50 was 87.8 nM (parasite growth, SYBR Green; NF54; blood stage).
Cc1ccc(S(=O)(=O)n2cc3c4c2C(=O)C(NCCc2ccc(O)cc2)=CC4=NCC3)cc1 has an IC50 of 1410 nM (parasite growth, SYBR Green; W2; blood stage).
C[C@@H]1C(=O)O[C@@H](C)/C=C/C=C\[C@@H](C)[C@@H]2C=C[C@@H]3C[C@]4(C)O[C@@H]4[C@@H](C)[C@H]3[C@@H]2C(=O)C(Cl)(Cl)C1=O gave an IC50 of 62 nM (parasite growth, ELISA; 3D7; blood stage).
With COCCN(C)CC(=O)NC(Cc1ccc(-c2ccccc2)cc1)B(O)O (stereo not shown) the IC50 was 126 ± 45 nM ([3H]-hypoxanthine incorporation; Dd2, chloroquine-resistant).
For COc1cc(C)c(-c2ccc(O)c3c2C[C@@H](C)N[C@@H]3C)c2cccc(O)c12 (single isomer, unassigned), the IC50 was 355 ± 75 nM (asexual parasite proliferation, SYBR Green I fluorescence; K1).
O=C1C(NCCc2cc(Br)c(O)c(Br)c2)=CC2=NCCc3c[nH]c1c32 gave an IC50 of 2560 nM (parasite growth, SYBR Green; W2; blood stage).
O=C(CCCCCONC(=O)c1nc(-c2ccc(Cl)s2)cs1)NO gave an IC50 of 340 nM (asexual blood-stage growth, [3H]hypoxanthine uptake; 3D7; 72 h).
COc1cccc2c(-c3ccc(O)c4c3CC(C)(C)N=C4)ccc(OC(C)C)c12 gave an IC50 of 147 ± 11 nM (asexual parasite proliferation, SYBR Green I fluorescence; K1).
The IC50 of O=C1C(O)=C([C@H]2CC[C@H](c3ccc(Cl)cc3)CC2)C(=O)c2ccccc21 is reported as 79.7 nM (parasite growth, SYBR Green; 3D7; 72 h, blood stage).
O=C(CCCCCONC(=O)c1nc(-c2ccc(N3CCCC3)cc2)cs1)NO gave an IC50 of 80 nM (asexual blood-stage growth, [3H]hypoxanthine uptake; 3D7; 72 h).
COc1cccc2c(-c3ccc(O)c4c3CCN=C4)ccc(OC(C)C)c12 has an IC50 of 213 ± 47 nM (asexual parasite proliferation, SYBR Green I fluorescence; Dd2).
COc1cncc(-c2cc(F)cc(CNC(=O)c3cc(N4CC[C@@](C#N)(C5CC5)C4=O)cc(C)n3)c2)c1 has an IC50 of 320 nM (parasite growth; conditional knockdown control line; 72 h, together with: 12.5 nM anhydrotetracycline).
The IC50 of Oc1ccc(-c2ccc(O)c3ccccc23)c2c1C=NCC2 is reported as 744 nM (parasite growth, SYBR Green; NF54; blood stage).
The IC50 of O=C1C(=O)c2[nH]cc3c2C(=C1I)NCC3 is reported as 15700 nM (parasite growth, SYBR Green; W2; blood stage).
The IC50 of COc1cccc2c(-c3ccc4c(c3O)[C@@H](C)N[C@H](C)C4)c(CO)cc(OC)c12 is reported as 16.2 ± 4.8 nM (asexual parasite proliferation, SYBR Green I fluorescence; Dd2).
The IC50 of CCNCC#CCNc1ccnc2cc(Cl)ccc12 is reported as 38.2 nM (parasite growth, SYBR Green; 3D7; blood stage).

Excerpt of the above:
COc1ccc(-c2ccc(C)cc2)c2c1C(C)=N[C@H](C)C2 has an IC50 of 3900 nM (parasite growth, SYBR Green; NF54; blood stage).
O=C1C(=O)c2[nH]cc3c2C(=C1Cl)NCC3 gave an IC50 of 7290 nM (parasite growth, SYBR Green; DD2; blood stage).
With Oc1cccc2c1[nH]c1c(C3=CC4(O)CCC=CCCCCN5CCC3C3(CC6C=CCCCCN6C43)C5)nccc12 (single isomer, unassigned; (+)) the IC50 was 0.0195 ± 0.0106 µg/mL (parasite LDH; D6, chloroquine-sensitive; 72 h).
For COc1cc(O)c(-c2cc(-c3cc(-c4c(O)cc(OC)c5c4C[C@@H](C)N[C@@H]5C)c4cc(C)cc(OC)c4c3O)c(O)c3c(OC)cc(C)cc23)c2c1[C@@H](C)N[C@H](C)C2, the IC50 was 87.8 nM (parasite growth, SYBR Green; NF54; blood stage).
